Measurements from different studies.
A part holds a random share of what one study measured.

Set 1 — method: protein-binding microarray; molecule type: double-stranded DNA, one strand shown; sample: in vitro; tested at: 940 nM top; notes: 60-bp whole probe; together with: salmon DNA 0.4 mg/ml; reference: random background probes; reading: higher = stronger binding; all sequences stand within: GCCTAGCAC … GTCTTGATTCGCTTGACGCTGCTG
Target: Interferon regulatory factor 5, full length, phosphomimetic (IRF5, Homo sapiens, UniProt Q13568-2, residues 1-514, S451D/S453D/S456D/S462D)
Sequence | fitted relative affinity
CGAGATCTCCGAGATGCCTTCGTGCTA | -0.299 z-score
TTAGGTATCGGGTATCTGTTAGTGCTA | 6.42 z-score
TTATGTTTCGGACTGGGTTAGTGCTAG | 3.2 z-score
TTCTTTATGTACTCTCTCCATGTGCTA | 1.33 z-score
GACGGTTTCGACGCTGGGGACGTGCTA | 6.29 z-score
TCACATTTTTTTTGCAAACTGTGCTAG | 1.01 z-score

Set 2 — method: RNA Bind-n-Seq; molecule type: RNA; sample: in vitro; tested at: 20 nM; notes: 6-mer, flanks averaged, single round; together with: 150 mM KCl; reference: input library; reading: higher = stronger binding
Target: TAR DNA-binding protein 43, full length, His tag (TARDBP, Homo sapiens, UniProt Q13148, residues 1-414)
Sequence | 6-mer enrichment (R)
CCAUCA | 0.594
UCGUGC | 0.75
UGACAU | 0.656
CAAAGU | 0.639
UCGUCA | 0.621
UCUUGG | 0.853
CCUUAC | 0.606

Set 3 — method: competition protein-binding microarray; molecule type: double-stranded DNA, one strand shown; sample: in vitro; tested at: 2 µM; together with: Pho4 competitor, 0.05 µM; reading: higher = stronger binding; all sequences stand within: … GTCTTGATTCGCTTGACGCTGCTG
Target: Centromere-binding protein 1, full length, His-tagged (CBF1, Saccharomyces cerevisiae, UniProt P17106, residues 1-351)
UniProt P17106, sequence (whole entry, looked up): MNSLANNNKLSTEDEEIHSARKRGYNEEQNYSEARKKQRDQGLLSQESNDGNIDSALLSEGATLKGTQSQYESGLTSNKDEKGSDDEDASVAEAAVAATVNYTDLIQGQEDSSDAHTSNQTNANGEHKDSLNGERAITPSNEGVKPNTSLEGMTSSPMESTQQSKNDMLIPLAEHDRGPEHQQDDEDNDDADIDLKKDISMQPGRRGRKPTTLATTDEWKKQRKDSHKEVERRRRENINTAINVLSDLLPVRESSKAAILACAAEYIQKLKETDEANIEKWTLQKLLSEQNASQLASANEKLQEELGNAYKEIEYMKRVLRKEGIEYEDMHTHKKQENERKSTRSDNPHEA
Notes: whole 60-bp probe, lowest competitor level
Sequence | fluorescence intensity
TGCGCAACAACTTGTCACGGTACTTTATGTCTAGAA | 201 a.u.
CATACCCAACCTTGGTTCGTGGGTGAAGATATTTGT | 63 a.u.
TGCTCCACCGGCCAACACGTGGAAGTCGCAATTATA | 448 a.u.
TCTCCTCACAATTTTCACGTGCTTTCGATCTTAGTT | 1410 a.u.
TGCTCGCAATGACAGCACGTGACGGAAAGTGAGAAT | 7980 a.u.
AGCGACTATATTTTGCACGCTCTTAAAGCAGCCACC | 86.3 a.u.
ATGTTCATGGAAAAGCACGTGCCACTCCACTTCCAA | 2120 a.u.

Further values, each from its own experiment
Molecule | target | assay | system | conditions | how to read | measurement | result
PhoQ, residues 284 288 289 292 302 303 SCCLKL | PhoP, residues 12 14 15 18 19 GQALL (Escherichia coli, UniProt P23836) | Sort-seq, item: YFP reporter | E. coli | PhoQ-PhoP variant library, together with: 10 µM Mg2+ | reference: high Mg2+ state, higher = stronger signaling | fold induction | 9.07

A few entries again (further values, each from its own experiment):
Molecule | target | assay | system | conditions | how to read | measurement | result
PhoQ, residues 284 288 289 292 302 303 SCCLKL | PhoP, residues 12 14 15 18 19 GQALL (Escherichia coli, UniProt P23836) | Sort-seq, item: YFP reporter | E. coli | PhoQ-PhoP variant library, together with: 10 µM Mg2+ | reference: high Mg2+ state, higher = stronger signaling | fold induction | 9.07
